Earlier results that unrelated publications cite.
Protocols differ between the studies behind these lines.
UniProt Q9UNU6, sequence (whole entry, looked up): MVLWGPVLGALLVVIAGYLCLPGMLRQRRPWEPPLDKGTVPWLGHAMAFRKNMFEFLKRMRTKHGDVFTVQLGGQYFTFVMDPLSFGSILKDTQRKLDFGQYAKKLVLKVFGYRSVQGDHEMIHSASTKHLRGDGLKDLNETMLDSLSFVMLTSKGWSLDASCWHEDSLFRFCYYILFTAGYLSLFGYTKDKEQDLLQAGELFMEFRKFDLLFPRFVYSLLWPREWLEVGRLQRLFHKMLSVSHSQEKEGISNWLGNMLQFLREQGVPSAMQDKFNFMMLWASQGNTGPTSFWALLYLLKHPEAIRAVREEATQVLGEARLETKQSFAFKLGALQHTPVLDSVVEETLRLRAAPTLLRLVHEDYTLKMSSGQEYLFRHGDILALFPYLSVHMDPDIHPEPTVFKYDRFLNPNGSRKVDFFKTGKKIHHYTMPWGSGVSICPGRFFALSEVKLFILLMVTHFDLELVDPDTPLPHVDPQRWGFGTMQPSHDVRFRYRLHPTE
UniProt Q92630, sequence (whole entry, looked up): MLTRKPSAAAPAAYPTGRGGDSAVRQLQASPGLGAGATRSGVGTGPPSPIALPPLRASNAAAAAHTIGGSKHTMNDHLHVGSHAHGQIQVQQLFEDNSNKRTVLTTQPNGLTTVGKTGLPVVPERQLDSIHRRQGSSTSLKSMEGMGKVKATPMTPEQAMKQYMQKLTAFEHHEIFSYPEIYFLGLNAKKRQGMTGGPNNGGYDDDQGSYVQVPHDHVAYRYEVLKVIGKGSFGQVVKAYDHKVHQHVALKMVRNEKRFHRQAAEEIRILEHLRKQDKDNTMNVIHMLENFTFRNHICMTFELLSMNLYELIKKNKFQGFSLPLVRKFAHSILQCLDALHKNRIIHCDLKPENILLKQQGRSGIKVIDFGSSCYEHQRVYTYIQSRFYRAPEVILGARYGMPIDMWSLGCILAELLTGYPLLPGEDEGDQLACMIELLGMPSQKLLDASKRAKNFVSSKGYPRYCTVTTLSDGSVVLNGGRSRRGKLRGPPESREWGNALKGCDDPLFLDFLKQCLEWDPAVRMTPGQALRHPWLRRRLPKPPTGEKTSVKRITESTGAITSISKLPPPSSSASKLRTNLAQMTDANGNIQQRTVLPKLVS
UniProt P05177, sequence (whole entry, looked up): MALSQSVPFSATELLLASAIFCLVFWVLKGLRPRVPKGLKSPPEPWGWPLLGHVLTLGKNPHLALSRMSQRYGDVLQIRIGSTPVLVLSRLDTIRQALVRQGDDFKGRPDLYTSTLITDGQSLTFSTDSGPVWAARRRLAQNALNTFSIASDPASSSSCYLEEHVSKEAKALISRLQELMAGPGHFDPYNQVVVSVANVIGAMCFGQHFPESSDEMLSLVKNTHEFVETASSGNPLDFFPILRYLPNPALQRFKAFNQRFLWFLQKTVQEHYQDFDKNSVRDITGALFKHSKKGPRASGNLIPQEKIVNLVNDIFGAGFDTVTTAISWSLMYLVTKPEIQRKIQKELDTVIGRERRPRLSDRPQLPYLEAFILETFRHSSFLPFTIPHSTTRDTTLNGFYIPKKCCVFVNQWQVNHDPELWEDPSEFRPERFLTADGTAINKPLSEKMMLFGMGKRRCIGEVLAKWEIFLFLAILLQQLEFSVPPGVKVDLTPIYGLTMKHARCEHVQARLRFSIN
UniProt Q13336, sequence (whole entry, looked up): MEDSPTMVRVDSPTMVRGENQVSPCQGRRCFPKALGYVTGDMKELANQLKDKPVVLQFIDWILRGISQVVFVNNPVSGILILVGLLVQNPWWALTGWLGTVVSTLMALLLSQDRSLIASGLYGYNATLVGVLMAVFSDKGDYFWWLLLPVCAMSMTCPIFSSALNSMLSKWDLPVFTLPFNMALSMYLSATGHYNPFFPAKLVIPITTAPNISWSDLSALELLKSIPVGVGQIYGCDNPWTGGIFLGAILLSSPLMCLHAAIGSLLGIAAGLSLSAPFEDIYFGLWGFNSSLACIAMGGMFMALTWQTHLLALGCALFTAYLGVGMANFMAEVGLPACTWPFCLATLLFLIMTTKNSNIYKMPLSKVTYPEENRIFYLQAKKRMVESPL

| SMILES | target or system | assay | system | conditions | how to read | measurement | value |
| --- | --- | --- | --- | --- | --- | --- | --- |
| Nc1cc(C(F)(F)F)c(-c2nc(N3CCOCC3)nc(N3CCOCC3)n2)cn1 | Dual specificity tyrosine-phosphorylation-regulated kinase 2 (DYRK2, Homo sapiens, UniProt Q92630) | enzyme activity | – | 10 µM | relative to: untreated | remaining activity | 100% |
| CN/C(=N/CCSCc1nc[nH]c1C)NC#N | SLC22A8 | substrate | – | – | – | Km | 162 µM |
| CCC(C)n1ncn(-c2ccc(N3CCN(c4ccc(OCC5COC(Cn6cncn6)(c6ccc(Cl)cc6Cl)O5)cc4)CC3)cc2)c1=O (centres unmarked) | BCRP (ABCG2) | inhibitor | – | literature maximum | – | IC50 | 10 µM |
| C[C@@H](c1ncncc1F)[C@](O)(Cn1cncn1)c1ccc(F)cc1F | P-glycoprotein | in vitro | – | concentration not given | – | inhibition | no inhibition |
| NC(=O)c1cccnc1 | CYP2E1 (human) | substrate | human liver microsomes | – | – | Km | 2980 µM |
| CO[C@H]1C[C@@H]2CC[C@@H](C)[C@@](O)(O2)C(=O)C(=O)N2CCCC[C@H]2C(=O)O[C@H]([C@H](C)C[C@@H]2CC[C@@H](O)[C@H](OC)C2)CC(=O)[C@H](C)/C=C(\C)[C@@H](O)[C@@H](OC)C(=O)[C@H](C)C[C@H](C)/C=C/C=C/C=C/1C | recombinant human CYP3A5 | – | – | – | – | fraction unbound in microsomal incubation | 0.43 |
| CC1(C)S[C@@H]2[C@H](NC(=O)[C@H](N)c3ccccc3)C(=O)N2[C@H]1C(=O)O | Acinetobacter baumannii | – | clinical isolate RKI-No_231/15 | – | – | MIC | > 16 µg/mL |
| O=C(O)CC1CCN(C(=O)c2ccc(Cl)c(Cn3ccc4cc(C(F)(F)F)cc(Cl)c43)c2Cl)CC1 | OATP1B | – | human | 375 mg once daily | – | plasma coproporphyrin I exposure | no effect |
| COc1cc2c(c(OC)c1OC)-c1c(cc(OC)c(OC)c1OC)C[C@H](C)[C@H](C)C2 | CYP3A, rat | enzyme activity, inhibitor | rat liver microsomes | – | – | Ki | 5.8 µM |
| C=CC[C@@H]1/C=C(\C)C[C@H](C)C[C@H](OC)[C@H]2O[C@@](O)(C(=O)C(=O)N3CCCC[C@H]3C(=O)O[C@H](/C(C)=C/[C@@H]3CC[C@@H](O)[C@H](OC)C3)[C@H](C)[C@@H](O)CC1=O)[C@H](C)C[C@@H]2OC | CYP3A5 | metabolism, substrate | – | unbound fraction unadjusted | – | Km | 1.4 µM |
| CC(C)c1nc(N(C)S(C)(=O)=O)nc(-c2ccc(F)cc2)c1/C=C/[C@@H](O)C[C@@H](O)CC(=O)O | BCRP | – | human | oral, 10 mg, with: eltrombopag 75 mg oral | relative to: eltrombopag alone | Cmax increase | 103% |
| C=CC(=O)Nc1cc(Nc2nccc(-c3cn(C)c4ccccc34)n2)c(OC)cc1N(C)CCN(C)C | CYP3A5 | – | – | – | – | metabolism contribution | 9.6% |
| CCCS(=O)(=O)Nc1ccc(F)c(C(=O)c2c[nH]c3ncc(-c4ccc(Cl)cc4)cc23)c1F | ABCG2 | – | H460/MX20 | – | – | IC50 | > 20 µM |
| CCC(C)n1ncn(-c2ccc(N3CCN(c4ccc(OCC5COC(Cn6cncn6)(c6ccc(Cl)cc6Cl)O5)cc4)CC3)cc2)c1=O (centres unmarked) | P-glycoprotein | – | – | intestinal in vivo Ki | – | Ki | 0.0135 µM |
| C=C(C)C(=O)OCCC(F)(F)C(F)(F)C(F)(F)C(F)(F)C(F)(F)C(F)(F)F | CYP2C9 | – | – | concentration not given | – | activity | inactive |
| O=C(CCc1ccc(O)cc1)c1c(O)cc(O)cc1O | Urea transporter 1 (Homo sapiens, UniProt Q13336) | inhibitor | – | – | – | urea permeability | inhibited |
| CC12CC3CC(C)(C1)CC(N)(C3)C2 | recombinant CYP2D6 | inhibitor | – | – | – | Ki | 94.9 µM |
| OC(Cn1cncn1)(Cn1cncn1)c1ccc(F)cc1F | UGT2B7 | enzyme activity, inhibitor | – | – | – | Ki | 73 µM |

| SMILES | target or system | assay | system | conditions | how to read | measurement | value |
| --- | --- | --- | --- | --- | --- | --- | --- |
| FC(F)(F)C(F)(F)C(F)(F)C(F)(F)C(F)(F)C(F)(F)C(F)(F)C(F)(F)Br | CYP3A4 | inhibitor | – | Tox21 screening | – | IC50 | inactive |
| COC(=O)N[C@@H](C)CNc1nccc(-c2cn(C(C)C)nc2-c2cc(Cl)cc(NS(C)(=O)=O)c2F)n1 | Cytochrome P450 1A2 (CYP1A2, Homo sapiens, UniProt P05177) | inducer | human primary hepatocytes | concentration not given | – | induction | increased |
| CC[C@H]1OC(=O)[C@H](C)[C@@H](O[C@H]2C[C@@](C)(OC)[C@@H](O)[C@H](C)O2)[C@H](C)[C@@H](O[C@@H]2O[C@H](C)C[C@H](N(C)C)[C@H]2O)[C@](C)(O)C[C@@H](C)C(=O)[C@H](C)[C@@H](O)[C@]1(C)O | alpha-1-acid glycoprotein | – | – | – | – | fraction unbound | 0.305 |
| CNC(C)C1CCC(N)C(OC2C(N)CC(N)C(OC3OCC(C)(O)C(NC)C3O)C2O)O1 (centres unmarked) | Acinetobacter baumannii | – | clinical isolate RKI-No_16/15 | – | – | MIC | > 8 µg/mL |
| CCn1c(=O)c(-c2cc(NC(=O)Nc3ccccc3)c(F)cc2Br)cc2cnc(N)cc21 | human alpha-1-acid glycoprotein | – | – | – | – | plasma protein binding | > 99.8% |
| O=C1Nc2ccc(Cl)cc2[C@@](C#CC2CC2)(C(F)(F)F)O1 | 2A6 | – | – | Simcyp compound file | – | intrinsic clearance | 0.47 µL/min/pmol |
| CC(O)c1cc(C(=O)N[C@@H](C)Cn2ccc(-c3ccc(C#N)c(Cl)c3)n2)[nH]n1 (some centres unmarked) | BCRP (ABCG2) | inhibitor | – | literature maximum | – | IC50 | 1.33 µM |
| COc1cnc(-n2cnc(C)n2)c2[nH]cc(C(=O)C(=O)N3CCN(C(=O)c4ccccc4)CC3)c12 | esterases | – | – | – | – | metabolism share | 36.1% |
| OC(Cn1cncn1)(Cn1cncn1)c1ccc(F)cc1F | UGT2B7 | – | – | – | – | clearance | 0.0052 min⁻¹ |
| CCNS(=O)(=O)C(F)(F)C(F)(F)C(F)(F)C(F)(F)C(F)(F)C(F)(F)C(F)(F)C(F)(F)F | CYP1A2 | – | – | concentration not given | – | activity | inactive |
| CC(C)CCC[C@@H](C)[C@H]1CC[C@H]2[C@@H]3[C@H](O)CC4=CC(=O)CC[C@]4(C)[C@H]3CC[C@]12C | 7-alpha-hydroxycholest-4-en-3-one 12-alpha-hydroxylase (Homo sapiens, UniProt Q9UNU6) | binding | – | – | – | Kd | 0.018 µM |
| CO[C@]1(C(=O)N[C@@H](C)c2ccc(-n3cc(F)cn3)nc2)CC[C@H](c2nc(C)cc(Nc3cc(C)[nH]n3)n2)CC1 | BCRP | – | C2BBe1 | with: Ko143 | – | efflux ratio change | no effect |
| CC(O)C(C)n1ncn(-c2ccc(N3CCN(c4ccc(OCC5COC(Cn6cncn6)(c6ccc(Cl)cc6Cl)O5)cc4)CC3)cc2)c1=O (centres unmarked) | CYP3A4 human | substrate | – | – | – | Vmax | 543 pmol/min/nmol |
| O=C(O)CN1CCN(CC(=O)O)CCN(CC(=O)O)CC1 | Cu2+ | – | – | pH 7.4 | – | pCu | 17.6 |
| CC(O)C(C)n1ncn(-c2ccc(N3CCN(c4ccc(OCC5COC(Cn6cncn6)(c6ccc(Cl)cc6Cl)O5)cc4)CC3)cc2)c1=O (centres unmarked) | CYP3A4 human | substrate | – | – | – | Km | 0.027 µM |
| NS(=O)(=O)C(F)(F)C(F)(F)C(F)(F)C(F)(F)C(F)(F)C(F)(F)C(F)(F)C(F)(F)F | CYP3A4 | – | – | concentration not given | – | activity | inactive |
| CC(=O)Nc1ccc(O)cc1 | CYP2C9 | substrate | – | – | – | Km | 660 µM |

For quick reference, copied from above:
| SMILES | target or system | assay | system | conditions | how to read | measurement | value |
| --- | --- | --- | --- | --- | --- | --- | --- |
| CCn1c(=O)c(-c2cc(NC(=O)Nc3ccccc3)c(F)cc2Br)cc2cnc(N)cc21 | human alpha-1-acid glycoprotein | – | – | – | – | plasma protein binding | > 99.8% |
| CCC(C)n1ncn(-c2ccc(N3CCN(c4ccc(OCC5COC(Cn6cncn6)(c6ccc(Cl)cc6Cl)O5)cc4)CC3)cc2)c1=O (centres unmarked) | BCRP (ABCG2) | inhibitor | – | literature maximum | – | IC50 | 10 µM |
